Measured values gathered from unrelated publications.
Compare with care: the assays were run in different laboratories. ± marks the error that the study gave.
TSSK1B: Testis-specific serine/threonine-protein kinase 1 (TSSK1B, Homo sapiens, UniProt Q9BXA7)
UniProt Q9BXA7, sequence (whole entry, looked up): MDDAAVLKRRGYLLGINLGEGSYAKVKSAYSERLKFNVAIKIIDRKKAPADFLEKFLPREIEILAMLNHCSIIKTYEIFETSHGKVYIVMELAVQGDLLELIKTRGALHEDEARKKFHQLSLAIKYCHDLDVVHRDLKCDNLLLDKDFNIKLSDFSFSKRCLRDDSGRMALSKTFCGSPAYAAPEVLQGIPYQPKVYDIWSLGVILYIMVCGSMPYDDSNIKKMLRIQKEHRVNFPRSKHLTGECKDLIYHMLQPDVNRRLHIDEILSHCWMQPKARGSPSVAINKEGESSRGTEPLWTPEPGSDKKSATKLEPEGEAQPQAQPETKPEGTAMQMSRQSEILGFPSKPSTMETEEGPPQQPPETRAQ
UGT1A4: UDP-glucuronosyltransferase 1A4 (UGT1A4, Homo sapiens, UniProt P22310)
UniProt P22310, sequence (whole entry, looked up): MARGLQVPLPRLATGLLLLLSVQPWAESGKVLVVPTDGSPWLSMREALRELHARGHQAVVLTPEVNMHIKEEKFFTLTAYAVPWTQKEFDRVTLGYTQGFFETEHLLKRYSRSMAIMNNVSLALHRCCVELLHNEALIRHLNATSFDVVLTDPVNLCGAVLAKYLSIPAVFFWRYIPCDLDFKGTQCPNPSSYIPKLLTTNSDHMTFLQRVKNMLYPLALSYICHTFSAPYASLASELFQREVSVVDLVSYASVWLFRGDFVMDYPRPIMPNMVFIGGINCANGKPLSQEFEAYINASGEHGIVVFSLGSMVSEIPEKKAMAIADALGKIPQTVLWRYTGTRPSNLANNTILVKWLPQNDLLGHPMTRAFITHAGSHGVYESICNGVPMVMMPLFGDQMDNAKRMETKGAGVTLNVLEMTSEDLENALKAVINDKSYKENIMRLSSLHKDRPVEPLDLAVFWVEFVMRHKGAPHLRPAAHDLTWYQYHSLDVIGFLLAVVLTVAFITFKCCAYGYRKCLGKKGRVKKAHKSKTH
UniProt P48067, sequence (whole entry, unmodified, looked up): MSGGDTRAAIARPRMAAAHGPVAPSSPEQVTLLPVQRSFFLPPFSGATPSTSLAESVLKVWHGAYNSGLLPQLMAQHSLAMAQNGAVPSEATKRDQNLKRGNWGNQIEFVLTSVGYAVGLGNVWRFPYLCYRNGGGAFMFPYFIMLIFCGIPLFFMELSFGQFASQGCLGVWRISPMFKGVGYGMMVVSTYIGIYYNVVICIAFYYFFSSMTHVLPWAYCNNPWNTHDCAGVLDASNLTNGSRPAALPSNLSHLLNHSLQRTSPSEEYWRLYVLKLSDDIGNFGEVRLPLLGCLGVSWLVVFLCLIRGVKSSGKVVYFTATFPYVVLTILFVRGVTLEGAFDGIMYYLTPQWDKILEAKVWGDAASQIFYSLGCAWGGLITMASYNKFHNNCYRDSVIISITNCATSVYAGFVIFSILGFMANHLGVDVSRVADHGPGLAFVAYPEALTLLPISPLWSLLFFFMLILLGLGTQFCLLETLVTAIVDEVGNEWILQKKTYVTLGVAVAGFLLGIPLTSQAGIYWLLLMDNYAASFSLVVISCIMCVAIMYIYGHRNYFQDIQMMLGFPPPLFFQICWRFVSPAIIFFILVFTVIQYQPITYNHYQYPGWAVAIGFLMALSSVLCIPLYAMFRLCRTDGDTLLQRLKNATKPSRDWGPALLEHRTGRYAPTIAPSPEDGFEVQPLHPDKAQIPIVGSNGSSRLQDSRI
UniProt O14920, sequence (whole entry, looked up): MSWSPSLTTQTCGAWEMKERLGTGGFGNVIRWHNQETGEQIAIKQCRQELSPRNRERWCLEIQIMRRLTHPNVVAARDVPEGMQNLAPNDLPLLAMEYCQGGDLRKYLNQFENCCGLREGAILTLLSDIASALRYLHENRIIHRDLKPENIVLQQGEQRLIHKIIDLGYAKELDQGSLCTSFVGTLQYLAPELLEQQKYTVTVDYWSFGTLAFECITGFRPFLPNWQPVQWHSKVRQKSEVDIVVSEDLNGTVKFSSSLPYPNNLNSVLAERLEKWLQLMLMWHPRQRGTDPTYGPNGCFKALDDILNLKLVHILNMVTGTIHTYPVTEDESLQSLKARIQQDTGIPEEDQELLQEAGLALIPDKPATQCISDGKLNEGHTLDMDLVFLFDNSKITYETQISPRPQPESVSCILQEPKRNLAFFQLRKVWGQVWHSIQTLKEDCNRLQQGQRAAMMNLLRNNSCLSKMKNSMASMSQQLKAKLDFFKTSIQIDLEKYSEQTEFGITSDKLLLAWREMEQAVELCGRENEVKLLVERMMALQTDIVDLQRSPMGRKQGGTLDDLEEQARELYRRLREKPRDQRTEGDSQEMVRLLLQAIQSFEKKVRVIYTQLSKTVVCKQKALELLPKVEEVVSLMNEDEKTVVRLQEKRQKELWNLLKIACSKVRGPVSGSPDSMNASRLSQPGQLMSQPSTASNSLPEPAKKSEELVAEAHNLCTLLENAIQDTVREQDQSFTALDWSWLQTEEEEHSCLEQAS
UniProt P51957, sequence (whole entry, looked up): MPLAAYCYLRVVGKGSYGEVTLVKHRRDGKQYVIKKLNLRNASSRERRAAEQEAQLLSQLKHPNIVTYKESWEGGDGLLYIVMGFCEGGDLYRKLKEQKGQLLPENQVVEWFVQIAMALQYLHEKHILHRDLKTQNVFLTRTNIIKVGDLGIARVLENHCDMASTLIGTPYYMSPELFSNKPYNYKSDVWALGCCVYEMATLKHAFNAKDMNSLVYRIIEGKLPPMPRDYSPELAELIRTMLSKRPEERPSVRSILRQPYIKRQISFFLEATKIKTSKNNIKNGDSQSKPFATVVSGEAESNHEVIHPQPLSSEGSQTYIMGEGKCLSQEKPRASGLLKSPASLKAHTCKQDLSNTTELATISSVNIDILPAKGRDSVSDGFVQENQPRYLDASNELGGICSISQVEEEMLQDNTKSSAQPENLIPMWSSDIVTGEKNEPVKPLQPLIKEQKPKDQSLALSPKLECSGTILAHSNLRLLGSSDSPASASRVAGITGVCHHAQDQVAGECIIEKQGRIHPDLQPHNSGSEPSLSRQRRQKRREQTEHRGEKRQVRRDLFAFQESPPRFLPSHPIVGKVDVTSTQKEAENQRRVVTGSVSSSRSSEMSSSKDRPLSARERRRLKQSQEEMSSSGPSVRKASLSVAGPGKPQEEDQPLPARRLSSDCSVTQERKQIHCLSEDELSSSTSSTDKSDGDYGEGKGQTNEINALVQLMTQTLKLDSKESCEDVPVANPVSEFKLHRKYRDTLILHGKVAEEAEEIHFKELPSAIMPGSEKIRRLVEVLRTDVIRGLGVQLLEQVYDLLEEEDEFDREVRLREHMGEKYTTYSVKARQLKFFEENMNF
UniProt P21860, sequence (whole entry, looked up): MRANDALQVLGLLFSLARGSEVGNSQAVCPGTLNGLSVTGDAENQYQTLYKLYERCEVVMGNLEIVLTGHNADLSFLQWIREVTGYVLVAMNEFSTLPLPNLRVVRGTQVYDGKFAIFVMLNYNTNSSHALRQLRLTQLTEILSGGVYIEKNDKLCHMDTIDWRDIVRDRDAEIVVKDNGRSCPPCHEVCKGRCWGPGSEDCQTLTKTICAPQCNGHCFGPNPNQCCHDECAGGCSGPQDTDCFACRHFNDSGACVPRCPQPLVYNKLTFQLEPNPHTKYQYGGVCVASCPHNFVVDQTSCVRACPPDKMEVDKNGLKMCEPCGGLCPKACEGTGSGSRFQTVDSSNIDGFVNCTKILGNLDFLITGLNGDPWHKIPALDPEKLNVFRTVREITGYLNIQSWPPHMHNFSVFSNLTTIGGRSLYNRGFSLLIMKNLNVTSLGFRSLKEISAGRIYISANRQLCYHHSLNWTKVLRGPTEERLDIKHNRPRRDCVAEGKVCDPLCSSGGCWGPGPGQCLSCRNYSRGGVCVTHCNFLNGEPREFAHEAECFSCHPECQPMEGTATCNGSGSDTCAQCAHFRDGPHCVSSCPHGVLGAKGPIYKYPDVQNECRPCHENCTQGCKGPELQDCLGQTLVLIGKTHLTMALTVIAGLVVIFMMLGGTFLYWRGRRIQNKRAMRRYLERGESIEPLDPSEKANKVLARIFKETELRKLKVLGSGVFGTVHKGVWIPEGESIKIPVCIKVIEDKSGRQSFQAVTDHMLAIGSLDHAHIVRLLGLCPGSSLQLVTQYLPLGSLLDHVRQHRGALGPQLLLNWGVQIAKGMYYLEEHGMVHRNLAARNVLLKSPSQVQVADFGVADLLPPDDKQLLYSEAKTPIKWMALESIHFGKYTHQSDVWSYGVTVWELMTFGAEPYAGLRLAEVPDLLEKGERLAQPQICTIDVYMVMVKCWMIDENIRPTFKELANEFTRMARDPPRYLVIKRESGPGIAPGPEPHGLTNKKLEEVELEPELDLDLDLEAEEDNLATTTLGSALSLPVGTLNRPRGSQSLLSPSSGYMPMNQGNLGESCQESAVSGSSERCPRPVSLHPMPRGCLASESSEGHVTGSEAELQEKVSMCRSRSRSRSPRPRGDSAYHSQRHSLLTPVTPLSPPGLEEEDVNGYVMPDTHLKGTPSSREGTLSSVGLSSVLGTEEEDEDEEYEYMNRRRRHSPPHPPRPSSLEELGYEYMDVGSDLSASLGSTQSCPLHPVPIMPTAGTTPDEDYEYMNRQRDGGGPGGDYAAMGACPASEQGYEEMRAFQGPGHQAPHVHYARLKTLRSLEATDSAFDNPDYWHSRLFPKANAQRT
UniProt Q02750, sequence (whole entry, looked up): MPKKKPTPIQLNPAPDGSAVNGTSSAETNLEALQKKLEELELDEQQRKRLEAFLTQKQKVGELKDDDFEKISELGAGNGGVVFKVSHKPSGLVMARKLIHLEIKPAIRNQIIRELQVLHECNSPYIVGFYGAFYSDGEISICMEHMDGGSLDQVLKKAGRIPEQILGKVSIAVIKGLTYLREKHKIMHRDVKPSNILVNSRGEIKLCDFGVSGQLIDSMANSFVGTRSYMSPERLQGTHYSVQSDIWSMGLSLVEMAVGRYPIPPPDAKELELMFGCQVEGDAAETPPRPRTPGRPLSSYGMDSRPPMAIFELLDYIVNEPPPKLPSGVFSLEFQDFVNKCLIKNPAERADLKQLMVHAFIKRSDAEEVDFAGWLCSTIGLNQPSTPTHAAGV

Compound = O=C(NC1CCC1)c1ccc2nc(-c3cccc(NS(=O)(=O)NCCN4CCCCC4)c3)cn2c1; target = NEK4 (Homo sapiens, UniProt P51957); assay = enzyme activity; setting = 10 µM; remaining activity = 100%
Compound = Cc1cc(Nc2cc(N3CCN(C)CC3)nc(Sc3ccc(NC(=O)C4CC4)cc3)n2)[nH]n1; target = IKBKB (Homo sapiens, UniProt O14920); assay = kinase activity, KinaseProfiler; setting = 0.03 µM, species human; how to read = relative to: control; remaining activity = 105%
Compound = COc1cc(F)ccc1-c1ncnc(Nc2cccc(C[S@](C)(=N)=O)c2)n1; target = STK33 (Homo sapiens, UniProt Q9BYT3); assay = kinase activity; setting = 10 µM, with: 10 µM ATP; remaining activity = 93%
Compound = CN(C)CC#Cc1ccc2[nH]c3c(c2c1)-c1nc(N)ncc1CCC3; target = TSSK1B; assay = kinase activity, inhibitor, radiometric; setting = 1 µM, with: ATP at Km; remaining activity = 82%
Compound = COc1cc(-c2cncc3c2CN(C)Cc2cc(N4CCNCC4)ccc2-3)cc(OC)c1OC; target = BMPR1B (Homo sapiens, UniProt O00238); assay = kinase activity; setting = 1 µM, human enzyme, with: ATP 10 µM; how to read = relative to: DMSO control; remaining activity = 11%
Compound = CNc1ncc2c(/C=C/C(=O)N3CCC(OC)CC3)nn(Cc3cccc(C(F)(F)F)c3)c2n1; target = TSSK1B; assay = kinase activity, inhibitor; setting = 1 µM; how to read = relative to: untreated control; remaining activity = 90%
Compound = Cc1cc(NC(=O)c2cccc(NC(=O)/C=C/CN(C)C)c2)ccc1Nc1nccc(-c2cccnc2)n1; target = MAPK8 (Homo sapiens, UniProt P45983); assay = enzyme activity, inhibitor; setting = 0.006774 µM, 18 h, unit not given, with: GSH 10 mM pre-incubation; how to read = relative to: vehicle; remaining activity = 1.03
Compound = CNCC(=O)O; target = SLC6A9 (Homo sapiens, UniProt P48067, G373S); assay = glycine uptake, inhibitor; setting = 1000 µM, with: [3H]glycine; how to read = relative to: no inhibitor; remaining activity = 94%
Compound = C[C@@H]1CC[C@@]2(OC1)O[C@H]1C[C@H]3[C@@H]4CC[C@H]5C[C@@H](O)CC[C@]5(C)[C@H]4CC(=O)[C@]3(C)[C@H]1[C@@H]2C; target = UGT1A4; assay = glucuronidation, inhibitor; test system = human liver microsomes; setting = 1 µM, with: probe substrate 50 µM; how to read = relative to: no inhibitor; remaining activity = ~67%
Compound = COc1ccc(F)cc1C(=O)NCc1ccc(-c2nn([C@@H](C)C(F)(F)F)c(N)c2C(N)=O)cc1; target = MAP2K1 (Homo sapiens, UniProt Q02750); assay = kinase activity, inhibitor, HotSpot radiometric; setting = 1000 nM, with: ATP at Km; remaining activity = 12.2 ± 1.4%
Compound = O=c1cc(-c2ccc(O)c(-c3c(O)cc(O)c4c(=O)cc(-c5ccc(O)cc5)oc34)c2)oc2cc(O)cc(O)c12; target = UGT1A4; assay = glucuronidation, inhibitor; test system = human liver microsomes; setting = 10 µM, with: probe substrate 0.5 µM; how to read = relative to: no inhibitor; remaining activity = ~20%
Compound = COc1cc(Nc2ncc3c(n2)-c2ccc(Cl)cc2C(c2c(F)cccc2OC)=NC3)ccc1C(=O)O; target = RPS6KB1; assay = kinase activity; setting = 1 µM; remaining activity = 97%
Compound = C=CC(=O)N1CCC[C@@H](n2nc(-c3ccc(Oc4ccccc4)cc3)c3c(N)ncnc32)C1; target = ERBB3 (Homo sapiens, UniProt P21860); setting = 10 µM; remaining activity = 154%
Compound = O=C1NC(=O)/C(=C/c2ccc(-c3ccc(F)cc3O)o2)S1; target = EPHA4 (Homo sapiens, UniProt P54764); assay = enzyme activity; setting = 10 µM; remaining activity = 74%
Compound = O=C(O)c1ccc(Nc2ncc3c(n2)-c2ccc(Cl)cc2C(c2c(F)cccc2F)=NC3)cc1; target = SAPK2a(h); assay = kinase activity; setting = 1 µM; remaining activity = 105%

For quick reference, copied from above:
Compound = CNCC(=O)O; target = SLC6A9 (Homo sapiens, UniProt P48067, G373S); assay = glycine uptake, inhibitor; setting = 1000 µM, with: [3H]glycine; how to read = relative to: no inhibitor; remaining activity = 94%
